Assay results of several laboratories.
Compare with care: the assays were run in different laboratories. “And” joins repeats or separate records; there may be more than shown. Numbers after ± are the reported error.

| SMILES | test | test system | conditions | how to read | measurement | result |
| --- | --- | --- | --- | --- | --- | --- |
| C=CC(=O)Nc1cc(Nc2nccc(Nc3cc(Cl)c(F)cc3C(C)(C)O)n2)c(OC)cc1N1CC[C@@H](N(C)C)C1 | – | human, EGFR exon20ins NSCLC | concentration not given, D770_N771insSVD subtype | – | disease control rate | 90% |
| Cc1cc([C@H]2C[C@H]3[C@@H](C)SC(N)=N[C@@]3(c3ccc(F)cc3F)CO2)on1 | item: Aβx-42 | Mus musculus wild-type, brain | subcutaneous, 50 mg/kg, 5 h | – | Aβ42 level | 0.16 ng/g |
| O=C(OC(C(F)(F)F)C(F)(F)F)N1CCN(Cc2cccc(Oc3ccccc3)c2)CC1 | PET blocking study | rhesus monkey, brain CB | 0.01 mg/kg, compound pretreatment, with: [18F]T-401 tracer | – | k4 | 0.0776 min⁻¹ |
| O=C(O)CNC(=O)Cc1ccccc1 | – | ventricular cardiomyocytes, C57BL/6 mouse | dose not given, 0.28 s | – | sarcomere length | 1.68 µm |
| CCN1CCN(Cc2ccc(Nc3ncc(F)c(-c4cc(F)c5nc6n(c5c4)[C@H](C)CCC6)n3)nc2)CC1 | – | human advanced solid tumours | 200 mg, phase Ia monotherapy RECIST 1.1 | – | median progression-free survival | 5.8 months |
| FC(F)(F)Oc1cccc(-c2ccnc3[nH]c(C(F)(F)F)nc23)c1 | – | GAN diet MASH mice | 300 mg/kg, 31 days | reference: GAN control | liver weight | no effect |
| C[C@H]1C[C@H]2CSC(N)=N[C@@]2(c2nc(NC(=O)c3ccc(OC(F)F)cn3)cs2)CO1 | item: total Aβ | healthy adults, plasma | 125 mg once daily, day 4 | reference: placebo | percent change from baseline | -58.1% |
| N#Cc1ccc2c(c1)[C@H]1CCCN(C(=O)c3ccc4[nH]cnc4c3)[C@H]1C2 | – | human, plasma | 240 mg, day 15, 360 h | reference: placebo and baseline | change in fasting glucose | 3.6% |
| c1ccc(-c2n[nH]cc2-c2ccnc3ccccc23)nc1 | kinase binding, competitor, MIB/MS competition, item: MCK1 | Candida albicans cell lysate | 100 nM | reference: DMSO | log2 fold change | 1.19 |
| Cn1cc(Nc2nccc(-c3ccc4c(c3)CN(C3COC3)CC[C@H]4NC(=O)c3cn(C(C)(C)C)nn3)n2)cn1 | item: fMLP signaling in neutrophils | splenic B cells, mice | 30 mg/kg, IgD-activated in vivo | reference: vehicle, direction not given | pathway activation z-score | 3.77 |
| CCN(Cc1nc2c(N)nc3cc(-c4cc[nH]n4)ccc3c2[nH]1)C(C)=O | Kaplan-Meier | advanced solid tumour patients | dose not given, 6 months | – | overall survival rate | 46.1% |
| OC(CCN1CCCCC1)(c1ccccc1)C1CC2C=CC1C2 (stereo not drawn) | resting-state EEG | healthy elderly humans | oral, 4 mg, eyes closed, LS mean | – | power, alpha, EEG O1-Pz | 17 µV² |
| Cc1cc([C@H]2C[C@H]3[C@@H](CF)SC(N)=N[C@@]3(c3ccc(F)cc3F)CO2)on1 | item: Aβx-42 | Mus musculus wild-type, brain | subcutaneous, 30 mg/kg, 3 h | – | Aβ42 level | 0.47 ng/g |
| CC[C@@H](C)[C@@H](NC(=O)[C@@H](Cc1ccc(O)cc1)NC(=O)[C@H]1CCCN1C(=O)[C@@H](CCCNC(=N)N)NC(=O)[C@H](N)Cc1c[nH]cn1)C(=O)N[C@H](C)C(=O)N[C@H](Cc1c[nH]cn1)C(=O)N[C@H](CCCNC(=N)N)C(=O)N[C@@H](C(=O)N[C@H](Cc1ccc(O)cc1)C(=O)N[C@H](CO)C(=O)N[C@H](Cc1ccccc1)C(N)=O)C(C)C | ex vivo flow cytometry | B16 tumour-bearing mice, tumor | dose not given | – | IFN-γ+ CD8+ T cell frequency | 21.8% and 30.4% and 19.1% and 24.8% and 24.4% |
| C[C@@H](Nc1cc(F)cc(F)c1)c1cc(C(=O)N(C)C)cc2c(=O)cc(N3CCOCC3)oc12 | immunohistochemistry, item: phospho-PRAS40 | human, tumor biopsy | oral, 120 mg twice daily continuous, 408 h after first dose | reference: baseline, direction not given | pPRAS40 H-score change | 22.2% |
| CSCCNc1nc(SCCC(F)(F)F)nc2c1ncn2[C@@H]1O[C@H](COP(=O)(O)OP(=O)(O)C(Cl)(Cl)P(=O)(O)O)[C@@H](O)[C@H]1O | light transmittance aggregometry | human patients, platelet-rich plasma | dose not given, 2 h, with: ADP 5 µM | reference: patients | patients with IPA above 90% | 5% |
| C[C@H](Oc1ccc(Br)cc1-c1ccon1)C(=O)O | first response peak | human, tibialis anterior muscle | 100 mg, 30-15 Hz, SAD | – | difference from placebo | 14.4% |
| COc1ccc(-c2cncc(N[C@@H](C)c3cccc(NC(=O)c4cncc(C)c4)c3)n2)cc1OC | item: rno-miR-100-5p | rat SU5416/hypoxia model, lung | dose not given | reference: SU5416/hypoxia vehicle | fold change | 0.6 |

| SMILES | test | test system | conditions | how to read | measurement | result |
| --- | --- | --- | --- | --- | --- | --- |
| CN(C)C(=O)Oc1cccc([N+](C)(C)C)c1 | neuromuscular block reversal | rat | dose not given, 13 (unit not given), with: cisatracurium | reference: T1 twitch | train-of-four ratio | 92.4 |
| COc1cc(Nc2ncc3c(n2)-c2ccc(Cl)cc2C(c2c(F)cccc2OC)=NC3)ccc1C(=O)O | – | mouse, NB-1643 neuroblastoma xenograft | oral, 10.4 mg/kg, day 14 | reference: vehicle | relative tumour volume T/C | 0.9 |
| NC/C(=C\F)COc1cccc(Cn2c(=S)[nH]c(=O)c3[nH]cnc32)c1 | – | rats, myocardial ischaemia/reperfusion (LAD ligation) | dose not given | – | fractional shortening | 37.8% and 33.7% and 43.1% and 26.9% and 39.8% |
| CC(C)Cn1cnc2c(N)nc3ccccc3c21 | – | mouse psoriasiform model, skin | dose not given | reference: control | CXCL1 level | 4 fold |
| COc1nc(-c2cc(C)c(N[C@@H](C)c3cc(F)cc(F)c3)nn2)ccc1-n1cnc(C)c1 | item: Aβ38 | rat Sprague-Dawley male, CSF | oral, 50 mg/kg daily for 9 days, 4 h after dose | reference: vehicle | change in level | 68% |
| COc1nc(NCc2cn(-c3ccc(C(=O)Nc4ccc([N+](=O)[O-])cc4)cc3)nn2)nc(OC)n1 | MTT | normal colonocytes, rat | 72 h | – | maximum non-toxic concentration | 3.35 ± 0.12 nM |
| CCCCC1(CCCC)CN(c2ccccc2)c2cc(SC)c(OCC(=O)N[C@@H](C(=O)NCC(=O)O)c3ccccc3)cc2S(=O)(=O)C1 | item: 7α-hydroxy-4-cholesten-3-one | human, plasma | 20 mg once daily, day 11 | – | plasma C4 | 54.1 ng/mL |
| COc1nc(NCc2cn(-c3ccc(NC(=O)c4ccc(Cl)cc4)cc3)nn2)nc(OC)n1 | MTT | normal colonocytes, rat | 72 h | – | maximum non-toxic concentration | 1.5 ± 0.16 nM |
| NC(=O)c1cnc2[nH]ccc2c1N[C@@H]1[C@@H]2CC3C[C@H]1C[C@@](O)(C3)C2 | CD8+ effector memory T cells, flow cytometry | Caucasian humans, peripheral blood | 200 mg single dose | reference: baseline | percent change | 0.25% |
| [177Lu+3].[Cl-].[Cl-].[Cl-] | immunohistochemistry | BALB/c mice, 4T1 tumour | dose not given, 7 days | – | Ki-67 positive cells | 30.4 ± 0.66% |
| Cc1noc(C)c1-c1cc(C(O)(c2ccccn2)c2ccccn2)c2nc(C3CC3)[nH]c2c1 | item: CCR2 expression | human, peripheral blood | 0.6 mg, day 1, 1599 study | – | maximum inhibition | 22.5% |
| NCC(=O)Nc1cncc(-c2nn3c(=O)cc(N4CCNCC4)nc3s2)c1 | ADP-induced platelet aggregation, light transmission aggregometry | human, stable CAD on aspirin, platelets ex vivo | subcutaneous, 0.075 mg/kg, 60 min post-dose, with: ADP 20 µM | – | median inhibition | 63.2% |
| CCN1[C@@H](C(=O)NC23CCC(C(=O)O)(CC2)CC3)[C@H](c2cccc(Cl)c2F)[C@]2(C(=O)Nc3cc(Cl)ccc32)C12CCCCC2 | – | human, advanced solid tumours, MDM2-amplified TP53 wild type | dose not given, eight patients, RECIST | – | disease control rate | 100% |
| CC(C)NCC(O)c1ccc(O)c(O)c1 (stereo not drawn) | – | ventricular cardiomyocytes, C57BL/6 mouse | dose not given, 0.768 s | – | sarcomere length | 1.72 µm |
| Oc1c(Br)cc(Oc2ccc(Br)cc2Br)cc1Br | sulfonation | human liver cytosol | – | – | Vmax/Km | 47.8 ± 9.01 µL/min/mg |
| C=CCn1c(=O)c2cnc(Nc3ccc(N4CCN(C)CC4)cc3)nc2n1-c1ccc2c(n1)[C@@](O)(CC)CC2 | – | MDA-MB-231 xenograft, BALB/c nude mice | oral, 80 mg/kg once daily x 28, day 41 | reference: vehicle | tumour growth inhibition | 49.6% |
| C[C@@H](O)CCOC(=O)C[C@@H](C)O | item: C14-OH/C12-DC acylcarnitine | human, plasma | 60 min, log2-transformed values | – | metabolite level | -6.75 ± 0.6 µmol/L |
| CC(c1cc2ccccc2s1)N(O)C(N)=O (stereo not drawn) | item: 12-HEPE | human whole blood | 3 µM, with: Escherichia coli | – | amount | 897 ± 388 pg/mL blood |
